# Published values gathered from unrelated publications.
# Protocols differ between the studies behind these lines.
# Organism: Staphylococcus epidermidis
Compound,test,test system,setting,measurement,value
CN[C@H](CC(C)C)C(=O)N[C@H]1C(=O)N[C@@H](CC(N)=O)C(=O)N[C@H]2C(=O)N[C@H]3C(=O)N[C@H](C(=O)N[C@H](C(=O)O)c4cc(O)cc(O)c4-c4cc3ccc4O)[C@H](O)c3ccc(c(Cl)c3)Oc3cc2cc(c3O[C@@H]2O[C@H](CO)[C@@H](O)[C@H](O)[C@H]2O[C@H]2C[C@](C)(N)[C@H](O)[C@H](C)O2)Oc2ccc(cc2Cl)[C@H]1O,,MRSE 35984,16 h,MIC,0.59 µM
C[C@@H](O)[C@H](NC(=O)[C@H](Cc1ccccc1)NC(=O)[C@H](Cc1c[nH]c2ccccc12)NC(=O)[C@H](Cc1ccccc1)NC(=O)[C@@H](NC(=O)[C@H](Cc1ccccc1)NC(=O)[C@H](CCCNC(=N)N)NC(=O)[C@@H](N)CCCNC(=N)N)[C@@H](C)O)C(=O)N[C@@H](Cc1ccccc1)C(=O)N[C@@H](CCCNC(=N)N)C(=O)N[C@@H](CCCNC(=N)N)C(N)=O,broth microdilution,"12228, Mueller-Hinton broth","24 h, 37 °C, lowest concentration, 95% inhibition, together with: BSA",MIC,32 µM
CC[C@H](C)[C@H](N)C(=O)N[C@@H](CCCNC(=N)N)C(=O)N[C@H](C(=O)N[C@@H](Cc1c[nH]c2ccccc12)C(=O)N[C@@H](CCCCN)C(=O)N[C@@H](CCCCN)C(=O)N[C@@H](Cc1ccccc1)C(=O)N[C@H](C(=O)N[C@@H](CCCNC(=N)N)C(=O)N[C@@H](CCCCN)C(=O)N[C@@H](CCSC)C(=O)N[C@@H](CCCCN)C(=O)N[C@@H](C)C(=O)N[C@H](C(=O)N[C@@H](Cc1ccc(O)cc1)C(=O)N[C@@H](Cc1c[nH]cn1)C(N)=O)[C@@H](C)CC)C(C)C)C(C)C,broth dilution,KCTC 1917,,MIC,100 µM
CNC(C)C1CCC(N)C(OC2C(N)CC(N)C(OC3OCC(C)(O)C(NC)C3O)C2O)O1 (stereo not shown),broth microdilution,,,MLC,2 µg/mL
CS(=O)(=O)Nc1ncn(-c2cc(F)c(COc3ccc(OS(=O)(=O)F)cc3)c(F)c2)n1,,14490,,MIC,> 50 µM
CC[C@H](C)[C@H](NC(=O)[C@H](Cc1ccc(O)cc1)NC(=O)[C@@H](NC(=O)[C@@H]1CCCN1C(=O)[C@H](CCCNC(=N)N)NC(=O)[C@H](CC(N)=O)NC(=O)[C@H](CC(N)=O)NC(=O)CN)C(C)C)C(=O)N1CCC[C@H]1C(=O)N[C@@H](CCC(N)=O)C(=O)N1CCC[C@H]1C(=O)N[C@@H](CCCNC(=N)N)C(=O)N1CCC[C@H]1C(=O)N1CCC[C@H]1C(=O)N[C@@H](Cc1c[nH]cn1)C(=O)N1CCC[C@H]1C(=O)N[C@@H](CCCNC(=N)N)C(=O)N[C@@H](CC(C)C)C(=O)O,broth dilution,ATCC 51625,"18 h, 37 °C",MIC,304 µM
CC[C@H](C)[C@H](NC(=O)CN)C(=O)NCC(=O)N[C@@H](CCCCN)C(=O)N[C@@H](Cc1ccccc1)C(=O)N[C@@H](CC(C)C)C(=O)N[C@@H](CCCCN)C(=O)N[C@@H](CCCCN)C(=O)N[C@@H](C)C(=O)N[C@@H](CCCCN)C(=O)N[C@@H](CCCCN)C(=O)N[C@@H](Cc1ccccc1)C(=O)NCC(=O)N[C@@H](CCCCN)C(=O)N[C@@H](C)C(=O)N[C@@H](Cc1ccccc1)C(=O)N[C@H](C(=O)N[C@@H](CCCCN)C(=O)N[C@H](C(=O)N[C@@H](CC(C)C)C(=O)N[C@@H](CCCCN)C(=O)N[C@@H](CCCCN)C(N)=O)[C@@H](C)CC)C(C)C,broth dilution,KCTC 1917,,MIC,3.1 µM
CC[C@H](C)[C@H](NC(=O)[C@H](CCCNC(=N)N)NC(=O)[C@H](Cc1ccc(O)cc1)NC(=O)CNC(=O)[C@H](Cc1ccc(O)cc1)NC(=O)[C@H](CCCNC(=N)N)NC(=O)[C@H](CC(C)C)NC(=O)[C@H](C)NC(=O)[C@H](CCC(N)=O)NC(=O)[C@H](CCC(=O)O)NC(=O)[C@@H](NC(=O)[C@H](CCC(N)=O)NC(=O)[C@H](CCCNC(=N)N)NC(=O)[C@H](CCSC)NC(=O)[C@H](Cc1ccc(O)cc1)NC(=O)[C@H](CCC(N)=O)NC(=O)[C@@H](N)CCCNC(=N)N)[C@@H](C)CC)C(=O)N[C@@H](CO)C(=O)N[C@@H](CCCNC(=N)N)C(=O)N[C@@H](CCCNC(=N)N)C(N)=O,broth dilution,ATCC 51625,"18 h, 37 °C",MIC,242 µM
CC[C@H](C)[C@H](NC(=O)[C@H](CCCCN)NC(=O)[C@@H](NC(=O)[C@H](Cc1ccc(O)cc1)NC(=O)[C@H](CCCCN)NC(=O)[C@H](CCCCN)NC(=O)CNC(=O)[C@H](CCCCN)NC(=O)[C@@H](NC(=O)[C@H](C)NC(=O)[C@H](CC(C)C)NC(=O)[C@H](Cc1c[nH]c2ccccc12)NC(=O)CNC(=O)[C@@H](NC(=O)[C@H](Cc1ccccc1)NC(=O)[C@H](CCCCN)NC(=O)[C@H](CC(C)C)NC(=O)[C@H](Cc1ccccc1)NC(=O)[C@H](C)NC(=O)CNC(=O)[C@@H](N)CCSC)C(C)C)[C@@H](C)O)C(C)C)C(=O)N[C@@H](C)C(=O)N[C@@H](Cc1c[nH]c2ccccc12)C(=O)N[C@@H](CC(=O)O)C(=O)N[C@@H](Cc1c[nH]cn1)C(=O)N[C@@H](CCCCN)C(=O)NCC(=O)N[C@H](C(=O)N[C@H](C(=O)N[C@@H](CCSC)C(=O)N[C@@H](CCCCN)C(=O)N[C@@H](Cc1c[nH]c2ccccc12)C(=O)N[C@@H](CC(C)C)C(=O)N[C@@H](CC(N)=O)C(=O)N[C@@H](C)C(=O)NCC(=O)N[C@@H](CCC(N)=O)C(=O)N[C@H](C(=O)N[C@@H](Cc1ccccc1)C(=O)N[C@H](C(=O)N[C@@H](Cc1c[nH]c2ccccc12)C(=O)N[C@H](C(=O)N[C@@H](Cc1ccc(O)cc1)C(=O)N[C@@H](CCC(=O)O)C(=O)N[C@@H](CCC(N)=O)C(=O)N[C@H](C(=O)N[C@@H](CCCCN)C(=O)N[C@@H](CCCCN)C(=O)N[C@@H](CC(C)C)C(=O)N[C@@H](Cc1c[nH]c2ccccc12)C(=O)N[C@H](C(=O)O)[C@@H](C)O)[C@@H](C)CC)C(C)C)[C@@H](C)O)[C@@H](C)O)[C@@H](C)CC)[C@@H](C)O,broth microdilution,,37 °C,MIC,15.6 µg/mL
CC[C@H](C)[C@H](NC(=O)[C@@H](NC(=O)[C@H](Cc1ccccc1)NC(=O)CNC(=O)[C@H](CCC(N)=O)NC(=O)[C@H](CCCCN)NC(=O)[C@H](C)N)C(C)C)C(=O)N[C@@H](Cc1ccc(O)cc1)C(=O)N[C@@H](CCCNC(=N)N)C(=O)N[C@H](C(=O)N[C@@H](CCCNC(=N)N)C(=O)N[C@H](C(=O)N[C@@H](CCCNC(=N)N)C(=O)N[C@@H](CCCNC(=N)N)C(=O)NCC(=O)N[C@@H](CC(N)=O)C(=O)N[C@@H](CCCNC(=N)N)C(=O)N[C@@H](CCCCN)C(N)=O)C(C)C)C(C)C,broth dilution,KCTC 1917,,MIC,100 µM
CC(C)C[C@H](NC(=O)[C@H](Cc1c[nH]c2ccccc12)NC(=O)[C@H](CC(C)C)NC(=O)[C@@H](NC(=O)[C@H](CC(C)C)NC(=O)[C@H](CCCNC(=N)N)NC(=O)[C@@H](N)CCCNC(=N)N)[C@@H](C)O)C(=O)N[C@H](C(=O)N[C@@H](CC(C)C)C(=O)N[C@@H](CCCNC(=N)N)C(=O)N[C@@H](CCCNC(=N)N)C(N)=O)[C@@H](C)O,broth microdilution,"12228, Mueller-Hinton broth","24 h, 37 °C, lowest concentration, 95% inhibition, together with: BSA",MIC,4 µM
CC[C@H](C)[C@H](NC(=O)[C@H](C)NC(=O)CNC(=O)[C@H](C)NC(=O)[C@H](CCCCN)NC(=O)[C@H](CO)NC(=O)[C@H](C)NC(=O)[C@H](CCSC)NC(=O)CN)C(=O)N[C@@H](C)C(=O)NCC(=O)N[C@@H](CCCCN)C(=O)N[C@H](C(=O)N[C@@H](C)C(=O)N[C@@H](CCCCN)C(=O)N[C@H](C(=O)N[C@@H](C)C(=O)N[C@@H](CC(C)C)C(=O)N[C@@H](CCCCN)C(=O)N[C@@H](C)C(=O)N[C@@H](CC(C)C)C(N)=O)C(C)C)[C@@H](C)CC,broth dilution,ATCC 51625,"18 h, 37 °C",MIC,20.3 µM
CN[C@H](CC(C)C)C(=O)N[C@H]1C(=O)N[C@@H](CC(N)=O)C(=O)N[C@H]2C(=O)N[C@H]3C(=O)N[C@H](C(=O)N[C@H](C(=O)O)c4cc(O)cc(O)c4-c4cc3ccc4O)[C@H](O)c3ccc(c(Cl)c3)Oc3cc2cc(c3O[C@@H]2O[C@H](CO)[C@@H](O)[C@H](O)[C@H]2O[C@H]2C[C@](C)(N)[C@H](O)[C@H](C)O2)Oc2ccc(cc2Cl)[C@H]1O,,MRSE 35984,,MIC,1.17 µM

# Excerpt of the above:
Compound,test,test system,setting,measurement,value
CC[C@H](C)[C@H](NC(=O)CN)C(=O)NCC(=O)N[C@@H](CCCCN)C(=O)N[C@@H](Cc1ccccc1)C(=O)N[C@@H](CC(C)C)C(=O)N[C@@H](CCCCN)C(=O)N[C@@H](CCCCN)C(=O)N[C@@H](C)C(=O)N[C@@H](CCCCN)C(=O)N[C@@H](CCCCN)C(=O)N[C@@H](Cc1ccccc1)C(=O)NCC(=O)N[C@@H](CCCCN)C(=O)N[C@@H](C)C(=O)N[C@@H](Cc1ccccc1)C(=O)N[C@H](C(=O)N[C@@H](CCCCN)C(=O)N[C@H](C(=O)N[C@@H](CC(C)C)C(=O)N[C@@H](CCCCN)C(=O)N[C@@H](CCCCN)C(N)=O)[C@@H](C)CC)C(C)C,broth dilution,KCTC 1917,,MIC,3.1 µM
CC[C@H](C)[C@H](NC(=O)[C@H](CCCNC(=N)N)NC(=O)[C@H](Cc1ccc(O)cc1)NC(=O)CNC(=O)[C@H](Cc1ccc(O)cc1)NC(=O)[C@H](CCCNC(=N)N)NC(=O)[C@H](CC(C)C)NC(=O)[C@H](C)NC(=O)[C@H](CCC(N)=O)NC(=O)[C@H](CCC(=O)O)NC(=O)[C@@H](NC(=O)[C@H](CCC(N)=O)NC(=O)[C@H](CCCNC(=N)N)NC(=O)[C@H](CCSC)NC(=O)[C@H](Cc1ccc(O)cc1)NC(=O)[C@H](CCC(N)=O)NC(=O)[C@@H](N)CCCNC(=N)N)[C@@H](C)CC)C(=O)N[C@@H](CO)C(=O)N[C@@H](CCCNC(=N)N)C(=O)N[C@@H](CCCNC(=N)N)C(N)=O,broth dilution,ATCC 51625,"18 h, 37 °C",MIC,242 µM
